Measurements from different studies.
A part holds a random share of what one study measured. Changes are numbered by the printed parent chain.

Sample 1 — method: universal PBM; molecule type: double-stranded DNA, one strand shown; matrix: in vitro; tested at: not given; reading: higher = stronger binding
Target: Sal-like protein 4, full length isoform B (SALL4, Homo sapiens, UniProt Q9UJQ4-2, residues 1-616)
Setting: 8-mer, flanks averaged, mean of replicates
Strand	E-score
AAAATGAA	0.348
GCAGTGGA	-0.0115
GACTCAAC	-0.0002
CATTTCCC	-0.0467
GCCGCTCC	-0.291
CCAATTTA	0.244
TTAGTGAA	0.111
AGCACACC	-0.227
TCGCGGAA	-0.112
CACCAGGA	-0.0751
GCTAGTAC	-0.0115
ACATGAAG	0.163
TACACCCA	0.0216
ATACCAGA	0.123
ACACCCGG	-0.317
ATCTGTCC	-0.149
ATCCGTAA	-0.0384
CCTATGTA	0.226
TACCAATA	0.279
GCAGTGTA	0.073

Sample 2 — target: UBE2I UBC core domain (UniProt P63279); method: yeast two-hybrid; matrix: yeast; setting: mostly zero background; relative to: not given; reading: higher = stronger interaction
B1: IRF2BPL RING domain (UniProt Q9H1B7); chain SPMANSGPLCCTICHERLEDTHFVQCPSVPSHKFCFPCSRESIKAQGATGEVYCPSGEKCPLVGSNVP
B2: RC3H2 RING domain (UniProt Q9HBD1); chain QAAQWTEFLSCPICYNEFDENVHKPISLGCSHTVCKTCLNKLHRKACPFDQTAINTDIDVL
B3: TRIM72 RING domain (UniProt Q6ZMU5); chain APGLLHQELSCPLCLQLFDAPVTAECGHSFCRACLGRVAGEPAADGTVLCPCCQAPTRPQALST
B4: MID1 RING domain (UniProt O15344); chain METLESELTCPICLELFEDPLLLPCAHSLCFNCAHRILVSHCATNESVESITAFQCPTCRHVITLSQRGL
Sequence	lacZ reporter activity
B1 (IRF2BPL RING domain)	0
B2 (RC3H2 RING domain)	0
B3 (TRIM72 RING domain)	0
DDENSDNSNECVVCLSDLRDTLILPCRHLCLCTSCADTLRYQANNCPICRLPFRALLQIR (MGRN1 RING domain (UniProt O60291))	0
EDEVSDNSAECVVCLSDVRDTLILPCRHLCLCNTCADTLRYQANNCPICRLPFRALLQIR (RNF157 RING domain (UniProt Q96PX1))	0
B4 (MID1 RING domain)	0
QHHELTSLFECPVCFDYVLPPILQCQAGHLVCNQCRQKLSCCPTCRGALTPSIRNL (SIAH2 RING domain (UniProt O43255))	0

Sample 3 — method: DHFR PCA, deep sequencing; matrix: yeast; added: (+)-ABA 200 µM; relative to: wild-type fitted maximum; reading: higher = stronger binding
Target: ABI1, truncated, D143A, DHFR fusion (Arabidopsis thaliana)
Setting: methotrexate growth selection, single substitutions
Starting sequence: PYL1, truncated, DHFR fusion (Arabidopsis thaliana); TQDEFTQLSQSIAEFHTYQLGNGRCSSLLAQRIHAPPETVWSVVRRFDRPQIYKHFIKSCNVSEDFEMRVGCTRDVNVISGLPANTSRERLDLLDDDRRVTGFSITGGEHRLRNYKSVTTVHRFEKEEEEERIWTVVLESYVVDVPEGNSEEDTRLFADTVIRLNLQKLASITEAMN
Substitution	relative binding score [%]
N177S	96.4
F5P	88.8
N77V	106
L29I	97.3
S104N	31
T73G	82.4
R45V	15
S104T	104
S104W	0.394
V161G	-6.18
D144S	77
E151M	91.3

Sample 4 — method: protein-binding microarray; molecule type: double-stranded DNA, one strand shown; matrix: in vitro; tested at: 2200 nM top; setting: 60-bp whole probe; added: salmon DNA 0.4 mg/ml; relative to: random background probes; reading: higher = stronger binding; constant ends, left off below: GCCTAGCAC … GTCTTGATTCGCTTGACGCTGCTG
Target: Interferon regulatory factor 7, full length, phosphomimetic (IRF7, Homo sapiens, UniProt Q92985, residues 1-503, S471D/S472D/S475D/S476D/S477D/S483D/S484D/S487D)
Target sequence (chain): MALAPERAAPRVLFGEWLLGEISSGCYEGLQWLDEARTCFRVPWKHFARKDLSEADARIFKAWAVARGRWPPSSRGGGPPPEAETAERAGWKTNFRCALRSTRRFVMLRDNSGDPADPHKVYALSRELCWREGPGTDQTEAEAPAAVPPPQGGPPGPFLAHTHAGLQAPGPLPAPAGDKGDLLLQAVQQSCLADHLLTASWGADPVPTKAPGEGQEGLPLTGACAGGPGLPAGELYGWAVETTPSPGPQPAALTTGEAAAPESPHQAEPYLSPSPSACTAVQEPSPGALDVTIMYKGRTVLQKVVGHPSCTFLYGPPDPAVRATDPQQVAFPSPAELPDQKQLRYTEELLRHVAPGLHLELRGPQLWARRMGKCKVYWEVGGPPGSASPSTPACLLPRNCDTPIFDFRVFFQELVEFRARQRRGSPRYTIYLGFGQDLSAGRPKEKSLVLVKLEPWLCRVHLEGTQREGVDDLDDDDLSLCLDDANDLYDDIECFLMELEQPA
Strand	fitted relative affinity
TTAGGTATCGGGGCTGGGTTAGTGCTA	-0.0791 z-score
GACGGTATCCTTGTCCTGACGTGCTAG	0.871 z-score
TCATTTTCATGCTCTTATACTGTGCTA	3.56 z-score
GACGATTTCAGACTGGAGTCGTGCTAG	0.485 z-score
GACGCTTTCCTTTTCCTGACGTGCTAG	6.43 z-score
GACGGTATCAACACTGGGGACGTGCTA	-0.171 z-score
TTAGGTTTTGGTATCGGTTAGTGCTAG	1.65 z-score
CCTATTATATATATCATAAGGTGCTAG	1.03 z-score
TTAGATCCCAGTCTCGATTAGTGCTAG	1.09 z-score
TTAGGTTTCCTTATCCTTTGGTGCTAG	2 z-score
GACGATATCGGGACTGAAGACGTGCTA	-0.209 z-score
GATGGTATCGGACTGGGGACGTGCTAG	-0.169 z-score

Sample 5 — target: CCNE2, cyclin fold, Cln2 fusion (human); method: yeast growth competition, sequencing; matrix: yeast; setting: weak parent motif; relative to: not given; reading: higher = stronger binding
Starting sequence: PKMYT1 docking peptide (human); SFEPRNLLSLFED
Substitution	normalised enrichment score
HFEPRNLLSLFED [S1H]	0.0738
SFEPRNLLSLCED [F11C]	-0.683
SFEPCNLLSLFED [R5C]	0.235
SFEPRNLLSMFED [L10M]	-0.249
SFEPRGLLSLFED [N6G]	-0.636
SFIPRNLLSLFED [E3I]	-0.0572
SFEPRNPLSLFED [L7P]	-0.682
SFEPRNLLSLFEY [D13Y]	0.49
SFEPRNLLSLFYD [E12Y]	0.357
SFEPRNWLSLFED [L7W]	-0.368
SFEPRCLLSLFED [N6C]	0.402
SFCPRNLLSLFED [E3C]	0.53
SFEPRNLLSLFEA [D13A]	1.21
SFEPRNTLSLFED [L7T]	0.125
SFESRNLLSLFED [P4S]	0.347
SFEPRNLSSLFED [L8S]	-0.386
SFEPRNLLSLFEN [D13N]	0.944

Repeated from above (sample 5):
Substitution	normalised enrichment score
SFEPRNLLSLCED [F11C]	-0.683
SFEPCNLLSLFED [R5C]	0.235
SFEPRNLLSMFED [L10M]	-0.249
SFEPRGLLSLFED [N6G]	-0.636
SFIPRNLLSLFED [E3I]	-0.0572
SFEPRNPLSLFED [L7P]	-0.682
SFEPRNLLSLFEY [D13Y]	0.49
SFEPRNLLSLFYD [E12Y]	0.357
SFEPRNWLSLFED [L7W]	-0.368
